# Assay results collected from several papers.
# Every numbered part comes from another study and shows a few of its results, in no order.

# Study 1
# Target: Interferon regulatory factor 5, full length, phosphomimetic (IRF5, Homo sapiens, UniProt Q13568-2, residues 1-514, S451D/S453D/S456D/S462D)
# Technique: protein-binding microarray
# Form: double-stranded DNA, one strand shown
# Sample: in vitro
# Concentration: 940 nM top
# Setting: 60-bp whole probe
# Added: salmon DNA 0.4 mg/ml
# Relative to: random background probes
# Reading: higher = stronger binding
Sequence,fitted relative affinity
GCCTAGCACTTAGATATCAGTATTGATTAGTGCTAGGTCTTGATTCGCTTGACGCTGCTG,0.198 z-score
GCCTAGCACTGTGGTCTGTTTCTGATATGGTGCTAGGTCTTGATTCGCTTGACGCTGCTG,0.466 z-score
GCCTAGCACGACGGTATCCTACTGCTGAGGTGCTAGGTCTTGATTCGCTTGACGCTGCTG,-0.041 z-score

# Study 2
# Target: Histone acetyltransferase KAT6A, winged helix 2, GST fusion (KAT6A, Homo sapiens, UniProt Q92794, residues 85-181)
# Technique: protein binding microarray
# Form: double-stranded DNA, one strand shown
# Sample: in vitro
# Concentration: not given
# Setting: 8-mer, flanks averaged, mean of 2 arrays, mostly near background
# Relative to: not given
# Reading: higher = stronger binding
# Residues (chain): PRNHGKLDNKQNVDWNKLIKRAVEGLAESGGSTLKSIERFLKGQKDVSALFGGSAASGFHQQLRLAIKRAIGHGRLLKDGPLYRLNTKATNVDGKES
Sequence,E-score
ACAATTTA,0.0776
ACCTATAG,-0.257
GGTCGCAC,0.191
CCTGGTTA,-0.0319

# Study 3
# Target: Sal-like protein 4, full length isoform B (SALL4, Homo sapiens, UniProt Q9UJQ4-2, residues 1-616)
# Technique: universal PBM
# Form: double-stranded DNA, one strand shown
# Sample: in vitro
# Concentration: not given
# Setting: 8-mer, flanks averaged, mean of replicates
# Reading: higher = stronger binding
Sequence,E-score
ATGAAATA,0.313
ATCTAGGA,0.11
GATAACGA,0.181
GAACCGGA,-0.195
ATCACCCA,-0.167

# Other studies, line by line
Molecule,target,test,system,conditions,how to read,quantity,result
"PhoQ, residues 284 288 289 292 302 303 TNSAEL","PhoP, residues 12 14 15 18 19 AGCRL (Escherichia coli, UniProt P23836)","Sort-seq, refers to: YFP reporter",E. coli,"PhoQ-PhoP variant library, added: 10 µM Mg2+","relative to: high Mg2+ state, higher = stronger signaling",fold induction,6.61

# Some of these lines once more (study 1):
Sequence,fitted relative affinity
GCCTAGCACGACGGTATCCTACTGCTGAGGTGCTAGGTCTTGATTCGCTTGACGCTGCTG,-0.041 z-score
GCCTAGCACTGTGGTCTGTTTCTGATATGGTGCTAGGTCTTGATTCGCTTGACGCTGCTG,0.466 z-score
